Assay results of several laboratories.
Protocols differ between the studies behind these lines.

`C=CCn1c(=O)c2cnc(Nc3ccc(N4CCN(C)CC4)cc3)nc2n1-c1cccc(C(C)(C)O)n1` gave a Cmax of 606 nM (human, plasma; oral, 125 mg twice daily, cycle 1 day 17, geometric mean, added: durvalumab 1500 mg intravenous).
For `CCOc1c([C@H](C)n2nc(C)c3c(N)ncnc32)cc(Cl)c(F)c1[C@@H]1CNC(=O)C1`, the Cmax was 1290 nM (human patients, plasma; oral, 15 mg once daily, cycle 1 day 15, monotherapy, geometric mean).
The Cmax of `Cl.[2H]C([2H])([2H])CC(=O)c1cnc(NC(=O)C2CC2)cc1Nc1cccc(-c2ncn(C([2H])([2H])[2H])n2)c1OC` is reported as 283 ng/mL (human, fed, multiple dose; oral, 30 mg twice daily, tablet, day 14, geometric mean).
With `CN1C(=O)[C@@H](NC(=O)c2nnc(Cc3ccccc3)[nH]2)COc2cccnc21` the Cmax was 3270 ng/mL (healthy human, fasted, plasma; oral, 200 mg single dose, geometric mean).
The Cmax of `O=C(O)CCC(=O)O.[2H]C([2H])([2H])Oc1cc(C)c2[nH]ccc2c1CN1CC[C@@H](C2CC2)C[C@H]1c1ccc(C(=O)O)cc1` is reported as 6410 ng/mL (LC-MS/MS, geometric mean; human, plasma; 600 mg, single dose, fasting).
`CC(C)[C@H](N)C(=O)NCCCS(=O)(=O)O` has a Cmax of 7000 ng/mL (human, plasma; oral, 256.5 mg twice daily days 2-7, day 7, fed, capsule).
For `COc1ncc(-c2nc3c(n2C(C)C)[C@H](c2ccc(Cl)cc2)N(c2cc(Cl)cn(C)c2=O)C3=O)c(OC)n1`, the Cmax was 779 ng/mL (LC-MS/MS; human, plasma; oral, 100 mg, cycle 2 day 1, high-dose arm).
With `CO[C@H]1C[C@@H]2CC[C@@H](C)[C@@](O)(O2)C(=O)C(=O)N2CCCC[C@H]2C(=O)O[C@H]([C@H](C)C[C@@H]2CC[C@@H](OC(=O)NCCOCCOCCOCCOCCOCCOCCOCCOCCC(=O)N3CCc4cc(Cn5nc(-c6ccc7oc(N)nc7c6)c6c(N)ncnc65)ccc4C3)[C@H](OC)C2)C[C@@H](O)[C@H](C)/C=C(\C)[C@@H](O)[C@@H](OC)C(=O)[C@H](C)C[C@H](C)/C=C/C=C/C=C/1C` the Cmax was 38.3 ng/mL (human, plasma; intravenous, 1.6 mg, cycle 1 day 1, arithmetic mean).
For `CCn1cc(C(=O)N2CCOCC2)c(=O)c2cc(NC3Cc4ccccc4C3)cnc21`, the Cmax was 3680 ng/mL (human, fed; oral suspension, 2000 mg single dose, arithmetic mean).
The Cmax of `O=C(COc1ccc(Cl)cc1)NC12CC(c3nnc([C@H]4C[C@@H](OC(F)(F)F)C4)o3)(C1)C2` is reported as 7610 nM (healthy human volunteers fasted, plasma; oral, 800 mg single dose, arithmetic mean).
